Measurements of several laboratories.
Protocols differ between the studies behind these lines.
FLT3 autoinhibited: Receptor-type tyrosine-protein kinase FLT3, autoinhibited (FLT3, Homo sapiens, UniProt P36888)
FLT3 N841I: Receptor-type tyrosine-protein kinase FLT3 (FLT3, Homo sapiens, UniProt P36888, N841I)
FLT3: Receptor-type tyrosine-protein kinase FLT3 (FLT3, Homo sapiens, UniProt P36888)

Nc1ncc2c(n1)-c1c([nH]c3ccc(C4=CCOCC4)cc13)CCC2 — remaining binding (FLT3 autoinhibited; binding, competition with immobilised ligand; 1 µM): 100%
COc1c(Cl)cccc1Nc1c(-c2ccncc2C#C[C@@]2(C)CCCN2C(=O)/C=C/CN(C)C)[nH]c2c1C(=O)NCC2 — remaining binding (FLT3 autoinhibited; binding, competition with immobilised ligand; 3 µM): 95%
CCN1CCN(Cc2ccc(C(=O)Nc3ccc(C)c(NCc4cnc5[nH]ccc5c4OC)c3)cc2C(F)(F)F)CC1 — remaining binding (FLT3 N841I; binding, competition with immobilised ligand; 1 µM): 0.75%
CNC1C[S+]2CC[S+]3CC[S+](C1)[Ru-4]321([N]=C=S)[n]2c3ccc(OC)cc3c3c4c(c5cc(F)c[n+]1c5c32)C(=O)NC4=O (stereo not drawn) — remaining binding (FLT3; KinomeScan; 0.1 µM; relative to: untreated): 31%
C=CC(=O)N1CCCC(n2c(=O)c3ncccc3n(Cc3ccc(Oc4ccccc4)cc3)c2=O)C1 (stereo not drawn) — remaining binding (FLT3 autoinhibited; cell-free assay, competition with immobilised ligand; 1 µM): 61%
CC(C)=CC1OC(C)(C)C2C=C3C(=O)C(Cl)=CC(O)C3C3C(O)C4OC4C(=O)C132 (stereo not drawn) — remaining binding (FLT3 N841I; cell-free assay, competition with immobilised ligand; 10 µM): 93%
Cc1cnc2nc1Nc1cccc(c1)COC/C=C/COCc1cc(ccc1OCCN1CCOCC1)N2 — remaining binding (Receptor-type tyrosine-protein kinase FLT3 (FLT3, Homo sapiens, UniProt P36888, D835Y); binding; 0.1 µM): 1.8%
CNC(=O)C1CCN(c2cc(C)c(F)cc2NC(=O)c2ccc(-c3cc(O)ccc3C)c(C)c2)CC1 — remaining binding (FLT3; binding, competition with immobilised ligand; 1 µM): 96%
C=CC(=O)N1CCc2ccc(-n3c(=O)ccc4cnc5ccc(-c6cnn(C)c6)cc5c43)cc21 — remaining binding (Receptor-type tyrosine-protein kinase FLT3 (FLT3, Homo sapiens, UniProt P36888, D835H); KINOMEscan; 1 µM; relative to: DMSO control): 100%
